Measurements gathered from unrelated publications.
Each numbered part is a random draw from the data of one study; scales do not carry over between parts.

Series 1
Target: RNA binding protein fox-1 homolog 2, RRM domain, GST-SBP tag (RBFOX2, Homo sapiens, UniProt O43251-10, residues 100-194)
Method: RNA Bind-n-Seq
Form: RNA
Sample: in vitro
Concentration: 365 nM
Setting: natural RNA segment, single round, ends assumed
Baseline: no-protein control
Direction: higher = stronger binding
Target sequence (chain): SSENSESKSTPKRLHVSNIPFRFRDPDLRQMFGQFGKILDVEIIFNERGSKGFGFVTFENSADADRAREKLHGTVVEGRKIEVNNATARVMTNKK
For `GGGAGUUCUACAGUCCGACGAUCUCCAGUGUUUGGGAUGACCAGGAUCCCAAGCCUCCUGCUGCCACAAUGUUUAUAAAGGCCAAAUGAUAGCGGGGGCUAAGUUGGUGCUUUUGAGAACCAAGUAAAACAAAUGGAAUUCUCGGGUGCCAA`, “RBNS enrichment (R)” read 0.419.
`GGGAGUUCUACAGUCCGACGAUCAAACAUCACCUAUUUAAUGUUUUUAAUCACAUUUUGUAUGGAGUUAAAUAAAGUACAGUGCUUUUGUUAUAUUUUGGUGUACUUGUUACUUUCACUGAUUGUUGAUGAAUUGGAAUUCUCGGGUGCCAA`: “RBNS enrichment (R)” 0.723.
`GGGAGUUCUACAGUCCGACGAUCUCCUAAGUCCAAUUGUUGAAAUUGGAUCAAAGUAGAAUUGUCAGAGGAACACAACAUUAAGCCAUUAGAAUAGAAGAGCUGUUGUCUCCUGUUUCUCUAACACUAACAUGUGGAAUUCUCGGGUGCCAA` — result for “RBNS enrichment (R)”: 0.292.
`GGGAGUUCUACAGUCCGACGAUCUCCUCUCUCACCCAUUUCGCUUCCAAGACCAUUUGUAGUGAGCGGGUGGAUGCUGUGCUACGUGUGAAAUCUGUCUUUGCCAGGCCUGUCUCAGUGAUUAGCUUUUGGUAUGGAAUUCUCGGGUGCCAA`: “RBNS enrichment (R)” 0.588.
For `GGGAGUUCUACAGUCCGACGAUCGUCCUGACCAGAGUCUCAGUGGUCCUGACCCCCAAUGUGGGCAGGGGCUGGGCAGGAGGGUGGGGUCUGCUGUGGGUUCAGAGGACUCCACCUCCUGGCUGGUUUACCUGUGGAAUUCUCGGGUGCCAA`, “RBNS enrichment (R)” read 0.555.

Series 2
Target: Ras GTPase-activating protein-binding protein 1, full length (G3BP1, Homo sapiens, UniProt Q13283)
UniProt Q13283, sequence (whole entry, looked up): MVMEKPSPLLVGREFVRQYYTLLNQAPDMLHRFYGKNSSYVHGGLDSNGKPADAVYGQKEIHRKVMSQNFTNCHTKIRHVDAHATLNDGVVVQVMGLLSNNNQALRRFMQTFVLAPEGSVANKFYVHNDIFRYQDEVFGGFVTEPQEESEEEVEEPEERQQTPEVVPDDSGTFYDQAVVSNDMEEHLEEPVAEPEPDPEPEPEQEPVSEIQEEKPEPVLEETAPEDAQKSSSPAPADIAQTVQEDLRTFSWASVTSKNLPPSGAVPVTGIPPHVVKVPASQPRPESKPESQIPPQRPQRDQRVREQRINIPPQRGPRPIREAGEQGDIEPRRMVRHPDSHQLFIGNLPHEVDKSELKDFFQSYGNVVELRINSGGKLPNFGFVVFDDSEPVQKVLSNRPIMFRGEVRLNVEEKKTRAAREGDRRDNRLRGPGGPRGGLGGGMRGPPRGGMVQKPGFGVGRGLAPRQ
Method: RNA Bind-n-Seq
Form: RNA
Sample: in vitro
Concentration: 200 nM
Setting: whole 134-nt RNA, ends assumed
With: 150 mM KCl
Baseline: input library
Direction: higher = stronger binding
`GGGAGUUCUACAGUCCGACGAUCUUGUUUGAAACAGCAACGCUUCGGUCAGGGUAUCUUUUACCAGACACUAAAGCAUAUGGAGAUAGAAUAGAAAGAAUGCUUCGCCUCAGUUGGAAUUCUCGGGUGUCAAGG` gave a log2 enrichment of -1.07.
`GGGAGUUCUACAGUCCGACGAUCGUCCUGUGCUACACAUCGUAUGUACCGAAUCGGGCCCCCCGGGCCCCCCGGCCCCCCGGAAAGUAUUAUGUUACGCCGUUCGGAUCUGCAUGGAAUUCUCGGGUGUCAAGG` has a log2 enrichment of -0.25.
With `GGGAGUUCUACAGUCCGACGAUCGUCCUGUGCUACACAUCGUAUGUACCGAAUCGGGGAAAGGGGUUUUUGGGGAAAGGGGAAAGUAUUAUGUUACGCCGUUCGGAUCUGCACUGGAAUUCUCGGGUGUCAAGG` the log2 enrichment was 0.644.
The log2 enrichment of `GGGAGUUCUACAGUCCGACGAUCUGGGAGGUGGAUUUUGUUUAUUUUUUUAGCUCAUUUCCAGGGGUGGGAAUUUUUUUUUAAUAUGUGUCAUGAAUCAAGUUGUUUUUGAAAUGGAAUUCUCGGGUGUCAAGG` is reported as 0.28.
The log2 enrichment of `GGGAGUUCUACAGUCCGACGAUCCACAGACAACACGCACCCACACAGACACAGAGGGAAGGGGUUGGGAUGGGGACAGGGUGCACAGCAGGGCGGGGAAAGACCCCAGCCCCUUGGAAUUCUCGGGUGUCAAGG` is reported as 1.93.
`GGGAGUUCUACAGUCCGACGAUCCCUCAAGUCCUGUGCUACACAUCGUAUGUACCGAAUCGGAAAAAGGAGGUGGAAAGUAUUAUGUUACGCCGUUCGGAUCUGCACUUCCAGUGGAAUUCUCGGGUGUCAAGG` gave a log2 enrichment of -0.121.

Series 3
Target: Prothrombin, mature alpha-thrombin (F2, Homo sapiens, UniProt P00734)
Method: aptamer microarray, sandwich
Form: DNA with 2'F-ANA
Sample: in vitro
Concentration: 200 nM
Setting: whole 15-mer aptamer, many near background
With: Cy3 exosite-II aptamer, 400 nM
Direction: higher = stronger binding
Oligonucleotide: GGTTGGTGTGGTTGG
`2'F-ANA at 2 3 4 8 9 11 12 13 14`: “mean fluorescence intensity” 245 a.u.
`2'F-ANA at 4 5 6 7 8 10 12` — result for “mean fluorescence intensity”: 49.8 a.u.
`2'F-ANA at 3 6 9 10 11 14 15` — result for “mean fluorescence intensity”: 341 a.u.
`2'F-ANA at 1 4 5 7 8 12 14` — result for “mean fluorescence intensity”: 46.5 a.u.
`2'F-ANA at 2 3 4 6 7 9 10 11 14 15`: “mean fluorescence intensity” 149 a.u.
Under “mean fluorescence intensity”, `2'F-ANA at 1 2 3 4 7 9 11` is recorded as 142 a.u.
Under “mean fluorescence intensity”, `2'F-ANA at 8 9 14` is recorded as 177 a.u.

Single results of other studies
`PhoQ, residues 284 288 289 292 302 303 AANNSF` has a fold induction of 2.71 (PhoP, residues 12 14 15 18 19 AGCRL (Escherichia coli, UniProt P23836); Sort-seq, refers to: YFP reporter; E. coli; PhoQ-PhoP variant library, with: 10 µM Mg2+; baseline: high Mg2+ state, higher = stronger signaling).

For quick reference, copied from above (series 3):
`2'F-ANA at 1 4 5 7 8 12 14` — result for “mean fluorescence intensity”: 46.5 a.u.
`2'F-ANA at 2 3 4 6 7 9 10 11 14 15`: “mean fluorescence intensity” 149 a.u.
